{"data": "Assay results pooled from the literature", "sequence of UniProt P09936 (whole entry, looked up)": "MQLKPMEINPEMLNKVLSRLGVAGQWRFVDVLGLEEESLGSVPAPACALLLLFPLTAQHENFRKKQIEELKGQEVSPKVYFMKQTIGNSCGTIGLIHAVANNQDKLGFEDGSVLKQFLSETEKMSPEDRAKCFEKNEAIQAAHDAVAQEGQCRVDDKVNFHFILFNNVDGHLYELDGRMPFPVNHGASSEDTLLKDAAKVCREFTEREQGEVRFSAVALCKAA"}
{"Structure (SMILES)": "CC(=O)C1=C(C)N(c2cccc(C(F)(F)F)c2)C(=O)N[C@@H]1c1ccc(C#N)nc1", "tested on": "trypsin", "endpoint": "IC50", "value": "> 30 µM"}
{"Structure (SMILES)": "S=C(S)N1CCCC1", "tested on": "Toxoplasma gondii", "assay": "parasite growth", "system": "HFF, bradyzoite, glutamine-induced", "endpoint": "EC50", "value": "33.9 µM"}
{"Structure (SMILES)": "CCN(CC)CCCC(C)Nc1ccnc2cc(Cl)ccc12 (stereo not shown)", "tested on": "β-hematin formation", "assay": "detergent-based", "endpoint": "IC50", "value": "15 µM"}
{"Structure (SMILES)": "COc1ccc(C/C=C/c2ccc(O)cc2)cc1", "tested on": "STAT3", "assay": "reporter gene, inhibitor", "system": "NCI-H460", "endpoint": "IC50", "value": "2.23 mg/L"}
{"Structure (SMILES)": "C#CCN1C(=O)C2(C(C#N)=C(N)OC3=C2C(=O)CC(C)(C)C3)c2ccccc21 (stereo not shown)", "tested on": "UCHL1 (Homo sapiens, UniProt P09936)", "assay": "covalent, intact protein LC-MS", "setting": "12.5 µM", "endpoint": "labelling", "value": "16.1%"}
{"Structure (SMILES)": "COc1ccc(C/C=C(/CO)c2ccc(OC)cc2)cc1", "tested on": "STAT3", "assay": "reporter gene, inhibitor", "system": "NCI-H460", "endpoint": "IC50", "value": "5.03 mg/L"}
{"Structure (SMILES)": "CCN1CCC(CCNCc2cc3cc(Br)ccc3nc2SCc2ccccc2)CC1", "tested on": "Pseudomonas aeruginosa electron transport chain", "assay": "ACMA quenching", "system": "inverted membrane vesicles", "setting": "added: NADH", "endpoint": "IC50", "value": "3.2 mg/L"}
{"Structure (SMILES)": "COc1ccnc(CNC(=O)c2cn(Cc3ccc(Cn4ccccc4=O)cc3)nc2C2CC2)c1F", "tested on": "trypsin", "endpoint": "IC50", "value": "> 40 µM"}
{"Structure (SMILES)": "O=C(Nc1ccncc1)c1cc([N+](=O)[O-])ccc1Cl", "tested on": "Toxoplasma gondii", "assay": "parasite growth, luciferase reporter", "system": "HFF, tachyzoite", "setting": "72 h", "endpoint": "EC50", "value": "0.746 µM"}
{"Structure (SMILES)": "COc1cc(C/C=C/c2ccc(O)cc2)ccc1O", "tested on": "STAT3", "assay": "reporter gene, inhibitor", "system": "NCI-H460", "endpoint": "IC50", "value": "2.05 mg/L"}
{"Structure (SMILES)": "N=C(N)c1ccc(CNC(=O)c2cnn(Cc3ccccc3)c2)cc1", "tested on": "trypsin", "endpoint": "IC50", "value": "2.5 µM"}
{"Structure (SMILES)": "COc1ccc(C/C=C/c2cc(OC)cc(OC)c2)cc1", "tested on": "STAT3", "assay": "reporter gene, inhibitor", "system": "NCI-H460", "endpoint": "IC50", "value": "3.79 mg/L"}
{"Structure (SMILES)": "COCc1nn(Cc2ccc(Cn3ccccc3=O)cc2)cc1C(=O)NCc1c(Cl)ccc(OC)c1F", "tested on": "trypsin", "endpoint": "IC50", "value": "> 40 µM"}
{"Structure (SMILES)": "COc1ccc(CNc2c(CO)cnc3c(C4CC4)cc(C#N)cc23)cn1", "tested on": "PDE3", "assay": "inhibitor", "endpoint": "IC50", "value": "> 10 µM"}
{"Structure (SMILES)": "CCN(CC)Cc1cc(Nc2ccnc3cc(Cl)ccc23)ccc1O", "tested on": "β-hematin formation", "assay": "detergent-based", "endpoint": "IC50", "value": "5 µM"}
{"Structure (SMILES)": "Cc1cnn(Cc2ccc(Cn3cc(C(=O)NCc4ccc5c(N)nccc5c4)cn3)cc2)c1", "tested on": "trypsin", "endpoint": "IC50", "value": "> 40 µM"}
{"note": "A few entries again:"}
{"Structure (SMILES)": "COc1ccc(C/C=C/c2ccc(O)cc2)cc1", "tested on": "STAT3", "assay": "reporter gene, inhibitor", "system": "NCI-H460", "endpoint": "IC50", "value": "2.23 mg/L"}
